Measurements collected from several papers.
Each numbered part is a random draw from the data of one study; scales do not carry over between parts.

Sample 1
Target: RNA binding protein fox-1 homolog 2, RRM domain, GST-SBP tag (RBFOX2, Homo sapiens, UniProt O43251-10, residues 100-194)
Technique: RNA Bind-n-Seq
Form: RNA
Sample: in vitro
Tested at: 365 nM
Notes: natural RNA segment, single round, ends assumed
Relative to: no-protein control
Reading: higher = stronger binding
Measurement: RBNS enrichment (R)
Shared flanks, not repeated: GGGAGUUCUACAGUCCGACGAUC … UGGAAUUCUCGGGUGCCAA
Target sequence (chain): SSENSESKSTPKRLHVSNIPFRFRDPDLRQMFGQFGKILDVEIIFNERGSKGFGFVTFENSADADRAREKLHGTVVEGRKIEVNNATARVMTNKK
GGGCCUCCCCACCUGCUUUGGGGAGCUGUCUGUGCUGGGAGUGCCAGGCAUCCCAUGGGACCCAUCACUGCCAGUGUCUGUGCCUCCCAGAGGUCAGCCGUGUCUGCCCU: 0.266
CUAUAAAAGAAAUGCUUGAGAGGUUGACUAUAAUGGAUAUGUCACAGGUAUAAAACAGUUGUUUUCUAAAAACAUGCAUUUAGUAUGGCAUUCUCUUUUAGCAACUGAAU: 0.701
GGAGUUUUUAAUACCAAUGACAGAACAGAGAUUUGUGUGCUCAUCUUAAGAGCCAGAGCCAUAUAAGCAUCUUGGGAAAGCAAGUUUGAACCAGCUGCUGGUGUAAUGUA: 1.22
CCAGUGAAACUGUGCAGGGAAAUGAAGGUAGAAUUUUGGGAGGUAAUAAUGAUGUGAAACAUAAAGAUUUAAUAAUUACUGUCCAACACAGUGGAGCAGCUUGUCCACAA: 2.59
AGCAAAUGGUUUUGGGCAAGGGCUUUGGCCAUUCAUGUCAAGCUGGUUGUGGGUUUUUCAAGGUGCCAUAGCCACCCCCAAAGAUGUUUGUUUAAAGCGUGGGGUUUUUU: 0.621
AAGGUUAGAGGUUUGUCAACAAAAAGACAUGGAAGGUUAGGUUUGUCAACACAAAGACAUGGAAGAUUAGAGGUUUGUCAACACAAAGACACAGGAAGAAUGGGCUGCAG: 1.21
UCCUUGAUUUCUCAGUAGGUGCUAGAAUCCAGUUCACACCCUUCACUGUGCGUGCAGACACACUGACACACUCCGCCACGAGUGCUCCAGAGCCCACGAGGCUUGCAGAU: 0.39
GGGUUGGGCGUGCUACCUGCACCGCCCCUUCUCCAACAAGUUGCCUCCAAGCUUUGGGUUGGAGCUGUUCCAUUGGGUCCUCUUGGUGUCGUUUCCCUCCCAACAGAGCU: 0.205
UAUAUCUUUUCCCUGUACUCCUCAUGUACAACCAAAGAACAUACAUUAUGAAAAUUGUAUUAUAAUAUCUGGAAACACAACAUUUUCCUCUGGCAGGUGACUUUUGUACG: 0.442
CUGUUGCGGUUUCAUUCUCUGUCAUCAGGGCUAUUUUCUACAGACCUUGAGCCUCAAAACCUGUUCUACCAUUGAAGGAGAGGAAGAUUGAAGUUGGCUUACAUUUCUAC: 0.312
AGUAGGGGCUCUUGAGAGUAUUGAAAGGCAGUGCUGCCUUUAUGCAGGAAGGUAUAAACCGGUUAUGCACAUUGGAGCCCUUUGCUUUCACCUUACAUUCUGGAUGCAUU: 0.374
UUUGGUCCCUGACCUUAUGGCCAUCUUGGAGGUCAGUUGUUCCCUGUGGUUGACUGAACUGCUGUUGCUGUCCACAUUCCACCCUGACCCAUUCCCUGCUUGCGCCUAGG: 0.306

Sample 2
Organism: Saccharomyces cerevisiae
Read-out: mating pheromone growth arrest
Technique: pooled competitive growth deep sequencing
Form: peptide
Strain: no Cln2 overexpression
Notes: peptide tiling library
Reading: direction not given
Measurement: enrichment score
YLYLLLTQSLWCRV: -0.392
RQVRRDLFAF: -0.498
GTPKRCLDLSNLSSGE: 0.226
EPRNLLSLFEDTLDPT: 0.0286
VKRLNFRSEEME: -0.845
AKRSLGFLPQPVPL: -0.862
RTEALEQGGLPKKLIF: 0.475
KRCATPVIIDEILPSK: -0.19
GPVKLEFDVSDGAT: 0.147

Sample 3
Target: Histone acetyltransferase KAT6A, both winged helices, GST fusion (KAT6A, Homo sapiens, UniProt Q92794, residues 1-181)
Technique: protein binding microarray
Form: double-stranded DNA, one strand shown
Sample: in vitro
Tested at: not given
Notes: 8-mer, flanks averaged, mean of 2 arrays, mostly near background
Relative to: not given
Reading: higher = stronger binding
Measurement: E-score
Construct (chain): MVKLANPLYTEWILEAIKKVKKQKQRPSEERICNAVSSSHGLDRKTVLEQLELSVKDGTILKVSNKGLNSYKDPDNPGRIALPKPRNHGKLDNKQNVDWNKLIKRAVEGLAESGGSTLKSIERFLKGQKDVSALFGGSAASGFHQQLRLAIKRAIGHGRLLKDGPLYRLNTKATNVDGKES
CTGGAACA: -0.171
ACCAGAAC: -0.0559
ACAACTCC: -0.0383
CAGAAAGG: -0.0616
ATTATTAG: 0.0906
ACTCACGA: -0.128
AGGCTTTG: -0.205
CAGCACGC: 0.192
CGGAGCAG: 0.19
AAAATGAA: -0.0589
AGTTTTGA: -0.103
GACTCGGC: 0.115
GTGCTAGA: -0.229
ATCCGAAT: -0.00203
ATAAGGAT: -0.238
CTACTTCC: -0.106
GGATGGTA: -0.0617
CCTCCCGA: -0.0149

Sample 4
Target: Prothrombin, mature alpha-thrombin (F2, Homo sapiens, UniProt P00734)
Technique: aptamer microarray, sandwich
Form: DNA with 2'F-ANA
Sample: in vitro
Tested at: 200 nM
Notes: whole 15-mer aptamer, many near background
With: Cy3 exosite-II aptamer, 400 nM
Reading: higher = stronger binding
Measurement: mean fluorescence intensity
Oligonucleotide: GGTTGGTGTGGTTGG
2'F-ANA at 2 3 5 6 9 11 13 15: 65.3 a.u.
2'F-ANA at 1 2 3 7 8 9 10 12 14 15: 62.4 a.u.
2'F-ANA at 3 4 6 7 11 12 13 14: 295 a.u.
2'F-ANA at 1 2 4 6 8 9 11 12 14: 53.5 a.u.
2'F-ANA at 1 2 3 4 5 6 7 9 12 13 14: 45.6 a.u.
2'F-ANA at 1 2 8 10 12 14: 46.4 a.u.
2'F-ANA at 6 7 9 10 11 12 15: 190 a.u.
2'F-ANA at 2 3 5 6 8 13: 76.7 a.u.
2'F-ANA at 2 3 5 8 9 12 13 15: 156 a.u.
2'F-ANA at 1 3 4 6 7 8 9 14 15: 71.3 a.u.
2'F-ANA at 2 7 8 9 12 13 14 15: 167 a.u.
2'F-ANA at 1 3 4 5 6 8 9 11 12 13: 69.6 a.u.
2'F-ANA at 2 5 6 7 10 13 14: 58.5 a.u.
2'F-ANA at 3 4 6 10 11 12 14 15: 186 a.u.
2'F-ANA at 1 2 4 7 8 9 13 14 15: 47.3 a.u.
2'F-ANA at 1 2 4 5 8 12 14: 47.3 a.u.
2'F-ANA at 2 3 7 8 9 10: 432 a.u.
2'F-ANA at 2 4 6 8 9 10 12: 113 a.u.
2'F-ANA at 1 2 3 5 7 8 10 12 15: 65.3 a.u.
2'F-ANA at 4 6 8 10 13 15: 66.2 a.u.
2'F-ANA at 3 11 13 14 15: 604 a.u.
2'F-ANA at 3 5 9 10 11 13: 76.1 a.u.
2'F-ANA at 1 9 11 12: 321 a.u.

Sample 5
Target: RING finger protein unkempt homolog, zinc fingers 1-6, GST-SBP tag (UNK, Homo sapiens, UniProt Q9C0B0, residues 30-357)
Technique: RNA Bind-n-Seq
Form: RNA
Sample: in vitro
Tested at: not given
Notes: RNA with constant flanks, human and mouse sites, ends assumed
Relative to: input RNA pool
Reading: higher = stronger binding
Measurement: bound/input enrichment
Shared flanks, not repeated: GGGAGUUCUACAGUCCGACGAUC … CAACAGAGGAUUGAGCAUCA
Construct (chain): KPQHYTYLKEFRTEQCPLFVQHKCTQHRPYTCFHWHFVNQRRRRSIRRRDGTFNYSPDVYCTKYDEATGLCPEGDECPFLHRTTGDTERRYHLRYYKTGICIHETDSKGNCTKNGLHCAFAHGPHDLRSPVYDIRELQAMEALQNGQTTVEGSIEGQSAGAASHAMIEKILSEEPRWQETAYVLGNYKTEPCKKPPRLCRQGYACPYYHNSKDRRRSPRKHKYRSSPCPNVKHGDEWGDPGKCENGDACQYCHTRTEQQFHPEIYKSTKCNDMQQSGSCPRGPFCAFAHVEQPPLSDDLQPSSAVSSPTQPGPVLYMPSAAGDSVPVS
UACAGACGUUCUAGAAGCCGAAGUUAUGAAAGGAGGAGAUCAAGAAGUCGGUCUUUUGAUUACAACUAUAGAAGAUCGUAUAGUCCUAGAAACAGUAGACCGACUGGAAGACCACGGCGU: 0.578 ratio
UUCCAUGUAGACUUACCUUUCCUCAUAGAGCUAUCCUGGUUAAUAACAGGCCAAGAUUCUCCCAUUAUCCCCUGUUGUCUCCUGUAGCUUUGAUAAUGCCUGGGAGAUUCCUUGGUGUAA: 0.789 ratio
CUGUCCGAGAGAACGGGAUCUGCACGGCCGCUGUGUCCCUGCUUUGGAAGUGGUUCAGUCAUGGUUGAGAUUAAGAAGAUCUGUUGCAUUGGUGCGGGCUAUGUCGGCGGACCCACGUGC: 0.335 ratio
CUGCAGUUUCAGGCCUGUCGAGGGGCACAGACAGCUGCUGCUGCAGCUCCCAGAAUCAAAAAAUUUGCCAUUUACCGAUGGGACCCAGACAAGACUGGAGAUAAACCUCGAAUGCAGACG: 0.192 ratio
UGUAGAGCUAAUGUUUACCUUCUUCCGACCGGGAAAAUAGUUUAUUUCAUUGCAUCAGUAGUAGUACUAUUUAAUUAUGAGGAGAGAACUCAGCGACACUACCUGGGCCAUACAGACUGU: 4.5 ratio
AAGCACAAUGAACUGAAACCGUACAAAUGCCAGCUCUGCUACUAUGAGACCAAGCACACGGAGGAACUGGACACUCACCUUCGGGAUGAGCACAAGGUGAGCCGGAACUUUGAGCUGGUU: 0.0869 ratio
CCACAUUUUAUUUGUCCAUUUAUCAUUUGAUGGACAUUUGGGUUUUUUCCACCUUUUGAUUAUAAUAAUGCUGCUGUGAACAUUUAUGUAAAAGUUUUUUGUAUGGGUGUAUGUUUUCAC: 0.673 ratio
CUGGACUUCCACCGCUGUGAGAAGGCAAUGACGGCCAAGGGGGGUGAUGUCUCCGUGUGUGAGUGGUACCGGCGUGUGUACAAGUCCCUCUGUCCCGUGUCAUGGGUCUCAGCCUGGGAU: 0.173 ratio
GUUUUUAAUGAUGGCAGUUCCAGGGAGCUGGUGAACCUCACUGGUACAAUCCCAGUGCGUUAUCGAGGUAAUAUAUAUAAUAUUCCAAUAUGCCUGUGGCUGCUGGACACAUACCCAUAU: 0.195 ratio
AGAGCUAGAAGAUGGUCCCGGUCCAGAUCCCGCUCUCGAUCGCCAUCAAGAUUAAGAACAAAAAGUAAGAGUUCAUCGUUUGGUAGAAAUGAGAGAGAUAAUUACUCUCCUCGGUGGAAG: 0.32 ratio
GCCAUUUUCCCAGAUGGGACGCACAACGACACAUGGCAGUGCCAAGGCUACUUCACUGCACUAGAACAAUUUAUCAAGGAAGUGAUCAAGAGUCAUUCUCCCGAAGACAUGACAAAAACA: 1.19 ratio

A few entries again (sample 3):
ATTATTAG: 0.0906
CGGAGCAG: 0.19
ACTCACGA: -0.128
ATAAGGAT: -0.238
CAGCACGC: 0.192
AGGCTTTG: -0.205
AAAATGAA: -0.0589
CTACTTCC: -0.106
GACTCGGC: 0.115
